Published values from different studies.
Each line is one published result; not all experiments were run side by side.
Organism: Staphylococcus aureus

CC[C@H](C)[C@H](NC(=O)CN)C(=O)N[C@@H](C)C(=O)N[C@@H](CCCCN)C(=O)N[C@@H](Cc1ccccc1)C(=O)N[C@H](C(=O)N[C@@H](CCCCN)C(=O)N[C@@H](CCCCN)C(=O)N[C@H](C(=O)N[C@@H](C)C(=O)N[C@@H](CCCCN)C(=O)N[C@@H](C)C(=O)N[C@@H](CC(C)C)C(=O)N[C@@H](CCCNC(=N)N)C(N)=O)[C@@H](C)CC)[C@@H](C)CC  MIC (ATCC 29213, Mueller-Hinton broth; 12 h, 37 °C): 8 µg/mL
CN[C@H](CC(C)C)C(=O)N[C@H]1C(=O)N[C@@H](CC(N)=O)C(=O)N[C@H]2C(=O)N[C@H]3C(=O)N[C@H](C(=O)N[C@H](C(=O)O)c4cc(O)cc(O)c4-c4cc3ccc4O)[C@H](O)c3ccc(c(Cl)c3)Oc3cc2cc(c3O[C@@H]2O[C@H](CO)[C@@H](O)[C@H](O)[C@H]2O[C@H]2C[C@](C)(N)[C@H](O)[C@H](C)O2)Oc2ccc(cc2Cl)[C@H]1O  MIC (mecA−, antibiotic-susceptible): 1 µg/mL
CC[C@H](C)[C@H](N)C(=O)N[C@@H](CC(C)C)C(=O)NCC(=O)N[C@H](CCCNC(=N)N)C(=O)N[C@H](C(=O)N[C@@H](Cc1ccccc1)C(=O)N[C@@H](CCCCN)C(=O)NCC(=O)N[C@H](C(=O)N[C@@H](CCCCN)C(=O)N[C@@H](CC(=O)O)C(=O)N[C@H](C(=O)N[C@@H](CC(C)C)C(N)=O)[C@@H](C)CC)[C@@H](C)CC)[C@@H](C)CC  MIC (broth microdilution; MRSA ATCC 33591, Mueller-Hinton broth; 16 h, 37 °C): 25 µM
CC[C@H](C)[C@H](NC(=O)[C@H](CC(C)C)NC(=O)[C@H](CCCNC(=N)N)NC(=O)[C@@H](N)CCCNC(=N)N)C(=O)N[C@@H](CCCNC(=N)N)C(=O)N[C@@H](CCCCN)C(=O)N[C@@H](CC(C)C)C(=O)N[C@@H](CCCCN)C(=O)NCC(=O)N[C@@H](CC(C)C)C(=O)N[C@@H](CCCCN)C(=O)N[C@@H](CCCCN)C(=O)N[C@@H](Cc1ccc(O)cc1)C(=O)N[C@@H](CC(C)C)C(=O)N[C@@H](Cc1ccc(O)cc1)C(=O)N[C@@H](Cc1ccccc1)C(=O)N[C@@H](CCCCN)C(=O)N[C@@H](CC(C)C)C(=O)N[C@@H](CCC(N)=O)C(=O)N[C@@H](CC(C)C)C(=O)N[C@@H](CC(C)C)C(=O)N[C@@H](CCCCN)C(=O)N[C@@H](CCCCN)C(N)=O  MIC (CCARM 3095, methicillin-resistant, Mueller-Hinton broth; 24 h): 8 µM
CCCCCCC#Cc1cncc(-c2nnc(SCc3ccc([N+](=O)[O-])cc3)n2CCCN)c1  MIC (broth microdilution; Mu50 MRSA VISA; 18 to 24 h, 37 °C): 8 µg/mL
CC(C)C[C@@H](NC(=O)CNC(=O)[C@@H](CCCCN)NC(=O)[C@@H](CC(C)C)NC(=O)[C@@H](CCCCN)NC(=O)[C@@H](CCCNC(=N)N)NC(=O)[C@@H](CC(C)C)NC(=O)[C@@H](CC(C)C)NC(=O)[C@@H](CCCNC(=N)N)NC(=O)[C@H](N)CCCNC(=N)N)C(=O)N[C@H](CCCCN)C(=O)N[C@H](CCCCN)C(=O)N[C@H](Cc1ccc(O)cc1)C(=O)N[C@H](CC(C)C)C(=O)N[C@H](Cc1ccc(O)cc1)C(=O)N[C@H](Cc1ccccc1)C(=O)N[C@H](CCCCN)C(=O)N[C@H](CC(C)C)C(=O)N[C@H](CCC(N)=O)C(=O)N[C@H](CC(C)C)C(=O)N[C@H](CC(C)C)C(=O)N[C@H](CCCCN)C(=O)N[C@H](CCCCN)C(N)=O  MIC (KCTC 1621, Mueller-Hinton broth; together with: 2.5 mM CaCl2): 4 µM
CCCCCCCCCCCC[N+](C)(C)Cc1ccccc1.[Br-]  MIC (MRSA ATCC 33591; dark and light identical): > 640 µM
CC[C@H](C)[C@H](NC(=O)[C@H](CCCCN)NC(=O)[C@H](CCCCN)NC(=O)CNC(=O)[C@H](CCCCN)NC(=O)[C@H](CC(C)C)NC(=O)[C@H](CCCCN)NC(=O)[C@H](CCCNC(=N)N)NC(=O)[C@@H](NC(=O)[C@H](CC(C)C)NC(=O)[C@H](CCCNC(=N)N)NC(=O)[C@@H](N)CCCNC(=N)N)[C@@H](C)CC)C(=O)N[C@@H](Cc1ccc(O)cc1)C(=O)N[C@@H](CC(C)C)C(=O)N[C@@H](Cc1ccc(O)cc1)C(=O)N[C@@H](Cc1ccccc1)C(=O)N[C@@H](CCCCN)C(=O)N[C@@H](CC(C)C)C(=O)N[C@@H](CCC(N)=O)C(=O)N[C@@H](CC(C)C)C(=O)N[C@@H](CC(C)C)C(=O)N[C@@H](CCCCN)C(=O)N[C@@H](CCCCN)C(N)=O  MIC (broth microdilution; KCTC 1621, Mueller-Hinton broth; 24 h, 37 °C): 8 µM
CC(C)C[C@H](NC(=O)CNC(=O)CNC(=O)CNC(=O)[C@H](Cc1ccc(O)cc1)NC(=O)[C@H](CC(C)C)NC(=O)[C@@H](NC(=O)CNC(=O)[C@H](Cc1ccc(O)cc1)NC(=O)[C@H](CCCCN)NC(=O)[C@H](CC(N)=O)NC(=O)[C@@H](NC(=O)[C@H](CCCCN)NC(=O)[C@H](Cc1c[nH]c2ccccc12)NC(=O)CN)[C@@H](C)O)[C@@H](C)O)C(=O)N[C@@H](CCCCN)C(=O)N[C@@H](CCCCN)C(=O)N[C@@H](CC(C)C)C(=O)N[C@@H](CC(C)C)C(=O)N[C@@H](CC(C)C)C(=O)N[C@@H](CC(C)C)C(=O)N[C@@H](CC(C)C)C(=O)N[C@@H](CCCCN)C(=O)N[C@@H](CCCCN)C(=O)N[C@@H](CC(C)C)C(=O)NCC(=O)O  MIC (ATCC 25923; together with: 4 µM FeCl3): 16 µg/mL
O=C(O)[C@]1(Cc2cccc(Nc3nccs3)n2)CC[C@@H](Oc2cccc(Cl)c2F)CC1  MIC (NCTC 8325): > 30 µM
CC[C@H](C)[C@H](NC(=O)[C@H](CCCCN)NC(=O)[C@@H](NC(=O)[C@@H](NC(=O)[C@H](CC(C)C)NC(=O)[C@H](CCCNC(=N)N)NC(=O)[C@@H](NC(=O)[C@H](CC(C)C)NC(=O)[C@H](CCCNC(=N)N)NC(=O)CNC(=O)[C@H](Cc1ccccc1)NC(=O)[C@@H](N)CCCNC(=N)N)[C@@H](C)CC)[C@@H](C)CC)C(C)C)C(=O)N[C@@H](C)C(=O)N[C@@H](CCCNC(=N)N)C(=O)N[C@@H](CCCNC(=N)N)C(=O)N[C@@H](C)C(=O)N[C@@H](Cc1c[nH]cn1)C(=O)N[C@@H](CCCNC(=N)N)C(=O)N[C@@H](C)C(=O)N[C@@H](CCCNC(=N)N)C(=O)N[C@@H](CO)C(=O)N[C@@H](C)C(=O)N[C@H](C(=O)N[C@@H](CCCCN)C(=O)N[C@@H](C)C(=O)N[C@@H](C)C(=O)N[C@@H](CO)C(=O)N[C@@H](CC(N)=O)C(=O)N[C@H](C(=O)N[C@@H](C)C(=O)N[C@@H](CCC(=O)O)C(=O)N[C@@H](CC(C)C)C(=O)N[C@@H](C)C(=O)N[C@@H](Cc1c[nH]cn1)C(=O)NCC(=O)N[C@@H](CCC(=O)O)C(=O)O)C(C)C)C(C)C  MIC (broth microdilution; 18 h, 37 °C): ≤ 0.062 µM
Cc1ccc2[nH]c3c(c2c1)CCCC3NCCc1ccc(Br)cc1 (stereo not drawn)  MIC (broth microdilution; SG511 daptomycin-resistant): 4 µg/mL

A few entries again:
O=C(O)[C@]1(Cc2cccc(Nc3nccs3)n2)CC[C@@H](Oc2cccc(Cl)c2F)CC1  MIC (NCTC 8325): > 30 µM
